{"data": "Measurements collected from several papers", "note": "Each numbered part is a random draw from the data of one study; scales do not carry over between parts. Substitutions count along the parent as printed."}
{"data": "Set 1", "target": "CCNA2, cyclin fold, Cln2 fusion (human)", "technique": "yeast growth competition, sequencing", "matrix": "yeast", "notes": "strong parent motif", "relative to": "not given", "direction": "higher = stronger binding", "starting sequence": "PKN2 docking peptide (human); VSAVQKLDFSDTM"}
{"Substitution": "D8Q", "normalised enrichment score": 1.1}
{"Substitution": "S2G", "normalised enrichment score": 1.98}
{"Substitution": "T12L", "normalised enrichment score": 2.4}
{"Substitution": "V4F", "normalised enrichment score": 1.09}
{"Substitution": "S10I", "normalised enrichment score": 1.01}
{"Substitution": "K6V", "normalised enrichment score": 0.683}
{"data": "Set 2", "Substance": "PhoQ, residues 284 288 289 292 302 303 SMYGEC", "technique": "Sort-seq", "refers to": "YFP reporter", "matrix": "E. coli", "notes": "PhoQ-PhoP variant library", "added": "10 µM Mg2+", "relative to": "high Mg2+ state", "direction": "higher = stronger signaling"}
{"target": "PhoP, residues 12 14 15 18 19 GMGLL (Escherichia coli, UniProt P23836)", "fold induction": 0.896}
{"target": "PhoP, residues 12 14 15 18 19 LFHKL (Escherichia coli, UniProt P23836)", "fold induction": 6.82}
{"target": "PhoP, residues 12 14 15 18 19 QQAYL (Escherichia coli, UniProt P23836)", "fold induction": 1.17}
{"data": "Set 3", "target": "RNA binding protein fox-1 homolog 2, RRM domain, GST-SBP tag (RBFOX2, Homo sapiens, UniProt O43251-10, residues 100-194)", "technique": "RNA Bind-n-Seq", "form": "RNA", "matrix": "in vitro", "concentration": "365 nM", "notes": "natural RNA segment, single round, ends assumed", "relative to": "no-protein control", "direction": "higher = stronger binding"}
{"Strand": "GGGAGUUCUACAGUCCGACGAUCGCACAAUCAAUAAUUUCAGACUGGGUCGCUUGCCCAGUGUUCCUGUGGAGUGGAAUGAAAUCAAUGCUGCCUGGGGCCAGACAGUGCUGCUGCUCCAUGCUUUGGCCAAUUGGAAUUCUCGGGUGCCAA", "RBNS enrichment (R)": 1.56}
{"Strand": "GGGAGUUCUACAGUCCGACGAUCGUGCAGAAAAUAUUUAAUAUCAAAAGAAAAUUGAUAUUUUUAUACAAGUAAUUUCCUGAGCUAAAUGCUUCAUUGAAAGCUUCAAAGUUUAUAUGCCUGGUGCACAGUGCUGGAAUUCUCGGGUGCCAA", "RBNS enrichment (R)": 0.638}
{"Strand": "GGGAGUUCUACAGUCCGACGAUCACAAAAUGCAGAAAUUCCUUCUGAAGGACUAAAGCGACCAGCUGUCUGCCACACCUGCAGUAACACAGAGCAACAGAUUCCCAGCCCGUGAUGAGAGCCUGUAGCUCGUGUGGAAUUCUCGGGUGCCAA", "RBNS enrichment (R)": 0.467}
{"Strand": "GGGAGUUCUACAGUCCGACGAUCAAUUAUGAUAACAUGAGAUUUGCUGUUGUGCUUUUAGAGAAAAGUCUGGACUCAGCCACAAACUCUAAUAAGACCUGUACAUCUGAGAACCUUUCCCGUUACUGCGUUUUUGGAAUUCUCGGGUGCCAA", "RBNS enrichment (R)": 0.467}
{"Strand": "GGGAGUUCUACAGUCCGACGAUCGACAUUUCUUCAAACUCCAAACUACUACCAGAAACACAUUUUAUCACCCAUUGUGAGAGUCACUUGGUCAAAUUUAGUUAAUGAGUCCAUUUUGAUCAUAAUGCACUCACUGGAAUUCUCGGGUGCCAA", "RBNS enrichment (R)": 0.798}
{"Strand": "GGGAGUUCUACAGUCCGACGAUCUGAGAGUGAGCUGUAGGUGUGCGGGACCGGUACAGAAAGGCGUUCUUCGAGGUGGAUCACAGAGGCUUCUUCAGAUCAGUGCUUGAGUUUGGGGAAUGCGGCCGCAUUCCUGGAAUUCUCGGGUGCCAA", "RBNS enrichment (R)": 0.793}
{"Strand": "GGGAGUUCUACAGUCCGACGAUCAAAAGUGUGUCAGGGCAAGCAGACAACACAAUUUCCUAUCAGAAUAUGUCCCUCAACCCCCGAAACAAGGCUUCUCUCAGCCUCCCCACCAGUGAUGGAUAACAGCUCCUUGGAAUUCUCGGGUGCCAA", "RBNS enrichment (R)": 0.518}
{"Strand": "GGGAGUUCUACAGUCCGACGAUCAGCUGCAUGGGCCUCCACACCACCUUGGGAACCCCAUGGCACUGCCCUUCAGGGAAGCCGACCAGCCCAUGGAGACCGAGCCCAGGCACCCUUCGGACCCGCUGCCCCUGUGGAAUUCUCGGGUGCCAA", "RBNS enrichment (R)": 0.391}
{"data": "Set 4", "target": "TAR DNA-binding protein 43, full length, His tag (TARDBP, Homo sapiens, UniProt Q13148, residues 1-414)", "technique": "RNA Bind-n-Seq", "form": "RNA", "matrix": "in vitro", "concentration": "20 nM", "notes": "6-mer, flanks averaged, single round", "added": "150 mM KCl", "relative to": "input library", "direction": "higher = stronger binding"}
{"Strand": "GAUACG", "6-mer enrichment (R)": 0.908}
{"Strand": "UCCUAU", "6-mer enrichment (R)": 0.567}
{"Strand": "GGCGAA", "6-mer enrichment (R)": 1.72}
{"Strand": "UUCAUG", "6-mer enrichment (R)": 0.624}
{"Strand": "CGACGG", "6-mer enrichment (R)": 1.58}
{"Strand": "CCGAAU", "6-mer enrichment (R)": 0.67}
{"note": "Repeated from above (set 3):"}
{"Strand": "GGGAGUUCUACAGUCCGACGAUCGACAUUUCUUCAAACUCCAAACUACUACCAGAAACACAUUUUAUCACCCAUUGUGAGAGUCACUUGGUCAAAUUUAGUUAAUGAGUCCAUUUUGAUCAUAAUGCACUCACUGGAAUUCUCGGGUGCCAA", "RBNS enrichment (R)": 0.798}
{"Strand": "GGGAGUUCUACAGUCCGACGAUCUGAGAGUGAGCUGUAGGUGUGCGGGACCGGUACAGAAAGGCGUUCUUCGAGGUGGAUCACAGAGGCUUCUUCAGAUCAGUGCUUGAGUUUGGGGAAUGCGGCCGCAUUCCUGGAAUUCUCGGGUGCCAA", "RBNS enrichment (R)": 0.793}
{"Strand": "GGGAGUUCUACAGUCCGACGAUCAAAAGUGUGUCAGGGCAAGCAGACAACACAAUUUCCUAUCAGAAUAUGUCCCUCAACCCCCGAAACAAGGCUUCUCUCAGCCUCCCCACCAGUGAUGGAUAACAGCUCCUUGGAAUUCUCGGGUGCCAA", "RBNS enrichment (R)": 0.518}
{"Strand": "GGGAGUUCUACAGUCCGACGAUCAGCUGCAUGGGCCUCCACACCACCUUGGGAACCCCAUGGCACUGCCCUUCAGGGAAGCCGACCAGCCCAUGGAGACCGAGCCCAGGCACCCUUCGGACCCGCUGCCCCUGUGGAAUUCUCGGGUGCCAA", "RBNS enrichment (R)": 0.391}
